Published values of several laboratories.
A part holds a random share of what one study measured. Positions count from the first letter of the parent shown.

Study 1
Target: Histone acetyltransferase KAT6A, both winged helices, GST fusion (KAT6A, Homo sapiens, UniProt Q92794, residues 1-181)
Technique: protein binding microarray
Form: double-stranded DNA, one strand shown
Medium: in vitro
Tested at: not given
Notes: 8-mer, flanks averaged, mean of 2 arrays, mostly near background
Relative to: not given
Reading: higher = stronger binding
Residues (chain): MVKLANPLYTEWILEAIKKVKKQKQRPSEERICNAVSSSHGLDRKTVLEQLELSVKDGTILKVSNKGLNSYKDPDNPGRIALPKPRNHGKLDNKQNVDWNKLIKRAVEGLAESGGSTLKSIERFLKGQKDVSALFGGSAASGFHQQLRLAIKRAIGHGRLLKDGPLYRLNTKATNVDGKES
Strand	E-score
ACAATAGA	-0.0981
GCTGCGAA	-0.00158
TAACAGTA	-0.0794
CGTTTTCC	0.085
ACGGGTTA	0.268
CGTCAGAA	-0.00354
AATAGTCA	-0.142
CTAGTAGA	-0.152
ACTTCTGA	-0.166
AGTTAAAT	-0.0213

Study 2
Target: ABI1, truncated, D143A, DHFR fusion (Arabidopsis thaliana)
Technique: DHFR PCA, deep sequencing
Medium: yeast
Notes: methotrexate growth selection, single substitutions
Added: (+)-ABA 0.11 µM
Relative to: wild-type fitted maximum
Reading: higher = stronger binding
Starting sequence: PYL1, truncated, DHFR fusion (Arabidopsis thaliana); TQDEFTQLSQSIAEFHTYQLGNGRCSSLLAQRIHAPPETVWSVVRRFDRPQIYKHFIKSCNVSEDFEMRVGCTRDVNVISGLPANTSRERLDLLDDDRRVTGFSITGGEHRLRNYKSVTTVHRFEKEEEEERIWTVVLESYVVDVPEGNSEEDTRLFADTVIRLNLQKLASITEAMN; partner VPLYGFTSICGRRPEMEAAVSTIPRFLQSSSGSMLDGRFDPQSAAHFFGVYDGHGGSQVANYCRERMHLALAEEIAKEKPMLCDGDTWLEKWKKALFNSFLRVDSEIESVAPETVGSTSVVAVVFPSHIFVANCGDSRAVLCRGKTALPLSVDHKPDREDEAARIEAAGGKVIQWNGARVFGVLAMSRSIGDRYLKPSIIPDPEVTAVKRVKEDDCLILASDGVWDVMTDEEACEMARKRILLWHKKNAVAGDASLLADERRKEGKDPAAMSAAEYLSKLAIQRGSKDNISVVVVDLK
Substitution	relative binding score [%]
G23H	10.1
E128S	37.7
E14R	7.56
T160V	-0.00771
T173I	5.02
E125Q	46.3
T154E	0.937

Study 3
Target: CCND2, cyclin fold, Cln2 fusion (human)
Technique: yeast growth competition, sequencing
Medium: yeast
Notes: weak parent motif
Relative to: not given
Reading: higher = stronger binding
Starting sequence: WEE1 docking peptide (human); HKTFRKLRLFDTP
Substitution	normalised enrichment score
HKTFRKLLLFDTP [R8L]	0.00704
WKTFRKLRLFDTP [H1W]	0.154
HKTFRKLRLVDTP [F10V]	-0.0551
HKTFRKQRLFDTP [L7Q]	0.492
HKYFRKLRLFDTP [T3Y]	-1.01
IKTFRKLRLFDTP [H1I]	0.817
HKTFTKLRLFDTP [R5T]	0.14
HATFRKLRLFDTP [K2A]	0.136
HKTFRKLRKFDTP [L9K]	0.413

Single results of other studies
Molecule	target	test	test system	setting	how to read	measurement	result
PhoQ, residues 284 288 289 292 302 303 SLKLQV	PhoP, residues 12 14 15 18 19 HLGGL (Escherichia coli, UniProt P23836)	Sort-seq, item: YFP reporter	E. coli	PhoQ-PhoP variant library, added: 10 µM Mg2+	relative to: high Mg2+ state, higher = stronger signaling	fold induction	0.771

Repeated from above (study 2):
Substitution	relative binding score [%]
G23H	10.1
E128S	37.7
E14R	7.56
T160V	-0.00771
